Results gathered from unrelated publications.
Protocols differ between the studies behind these lines.

SMILES	assay	test system	setting	adverse event incidence [%]
CC(=O)O[C@H]1C(=O)[C@@]2(C)[C@H]([C@H](OC(=O)c3ccccc3)[C@]3(O)C[C@H](OC(=O)[C@H](O)[C@@H](NC(=O)c4ccccc4)c4ccccc4)C(C)=C1C3(C)C)[C@]1(OC(C)=O)CO[C@@H]1C[C@@H]2O	refers to: Vomiting	patients with advanced solid tumours	intravenous, dose not given, grade 3 and 4, possibly related to drug	2
O=C1CCc2ccc(OCCCCN3CCN(c4cccc(Cl)c4Cl)CC3)cc2N1	refers to: Akathisia	genotyped patients, CYP2D6 poor metabolizers	dose not given, long-acting oral or depot	0
CNC(=O)c1ccc(-c2cnc3ncc(Cc4ccc5ncccc5c4)n3n2)cc1F	phase 1 clinical trial, refers to: blood creatinine increased	gastric cancer expansion cohort	oral, 600 mg twice daily, grade 3 or 4	0
Cc1ccc(Sc2ccccc2N2CCNCC2)c(C)c1	–	healthy adult men	oral, 40 mg single dose, 10 days	0
NCCONC(=O)[C@@H]1CC[C@@H]2CN1C(=O)N2OS(=O)(=O)O	refers to: leading to permanent discontinuation	healthy Chinese men	intravenous, 2 g, treatment-emergent	0
CC(C)n1c(Nc2cccnc2)nc2cnc(Nc3ccc(N4CCN(C)CC4)cc3)nc21	refers to: Hyperuricemia	healthy male subjects	oral, 150 mg, with: rifampin	0
Cc1c(C(=O)O)ccc2c3n(nc12)[C@@H]1[C@H](C3)N(CC2CC2)[C@@]2(C(=O)Nc3cc(Cl)ccc32)[C@H]1c1cccc(Cl)c1F	phase Ia trial, refers to: Thrombocytopenia	cancer patients	oral, dose not given, all patients grade ≥3	27.8
CC[C@H](C)CCCCC(=O)N[C@@H](CCN)C(=O)N[C@H](C(=O)N[C@@H](CCN)C(=O)N[C@H]1CCNC(=O)[C@H]([C@@H](C)O)NC(=O)[C@H](CCN)NC(=O)[C@H](CCN)NC(=O)[C@H](CC(C)C)NC(=O)[C@@H](Cc2ccccc2)NC(=O)[C@H](CCN)NC1=O)[C@@H](C)O	refers to: oral hypoaesthesia	all subjects	IV, 0.75 mg/kg	72.7

Excerpt of the above:
SMILES	assay	test system	setting	adverse event incidence [%]
NCCONC(=O)[C@@H]1CC[C@@H]2CN1C(=O)N2OS(=O)(=O)O	refers to: leading to permanent discontinuation	healthy Chinese men	intravenous, 2 g, treatment-emergent	0
